Results gathered from unrelated publications.
Each numbered part is a random draw from the data of one study; scales do not carry over between parts. Positions count from the first letter of the parent shown.

Series 1
Target: Ras GTPase-activating protein-binding protein 1, RRM domain (G3BP1, Homo sapiens, UniProt Q13283)
UniProt Q13283, sequence (whole entry, looked up): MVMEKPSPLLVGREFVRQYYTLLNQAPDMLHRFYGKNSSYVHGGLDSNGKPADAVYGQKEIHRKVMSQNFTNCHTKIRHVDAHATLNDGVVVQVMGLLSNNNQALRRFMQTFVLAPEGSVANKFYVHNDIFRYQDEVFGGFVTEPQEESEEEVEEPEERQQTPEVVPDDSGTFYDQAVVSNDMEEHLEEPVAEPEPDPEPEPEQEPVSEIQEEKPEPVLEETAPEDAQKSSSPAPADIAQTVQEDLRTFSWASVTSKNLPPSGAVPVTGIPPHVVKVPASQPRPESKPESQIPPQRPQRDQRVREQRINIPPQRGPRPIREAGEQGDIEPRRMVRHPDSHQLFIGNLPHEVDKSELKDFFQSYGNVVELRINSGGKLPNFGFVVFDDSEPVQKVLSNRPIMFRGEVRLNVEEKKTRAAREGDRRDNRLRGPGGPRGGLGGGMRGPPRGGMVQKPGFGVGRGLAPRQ
Technique: RNA Bind-n-Seq
Form: RNA
Sample: in vitro
Tested at: 1 µM
Setting: whole 134-nt RNA, ends assumed
With: 150 mM KCl
Baseline: input library
Direction: higher = stronger binding
All sequences stand within: GGGAGUUCUACAGUCCGACGAUC … UGGAAUUCUCGGGUGUCAAGG
Oligonucleotide	log2 enrichment
UGAAAAUUCUCGACUGGCUGCUGAGGUUUACAAAGACAUGCCGGAAACCAGCUUUACUCGAACCAUUUCUAAUCCUGAGGUGGUUAUGAA	-0.197
AAGUCCUGUGCUACACAUCGUAUGUACCGAAUCGGGGUGGGGAGGGGAAAAAGGGGAAAGUAUUAUGUUACGCCGUUCGGAUCUGCACUU	0.82
GUCCUGUGCUACACAUCGUAUGUACCGAAUCGGGCCCCCGGGGCCCCCGGCCCCCGGGGAAAGUAUUAUGUUACGCCGUUCGGAUCUGCA	-0.772
GUCCUGUGCUACACAUCGUAUGUACCGAAUCGGCCCCCGGGCCCCCGGGCCCCCGGGGAAAGUAUUAUGUUACGCCGUUCGGAUCUGCAC	-0.503
CUCAAGUCCUGUGCUACACAUCGUAUGUACCGAAUCGGAAGGGAAGGAAGGGGAAAGUAUUAUGUUACGCCGUUCGGAUCUGCACUUCCA	-0.0501
ACCAUGCAGGUGGGCAUCUUUGGGAAGUGGGGCAAGGGGGGGAUAGGGAGGGGGGUAACACUUUGGCAACAGGUGGUCCCAGGUCGUUUC	0.933
UGCUGCGGAAGGGCUCUGGCACUCUGUGUGAGGCCUUGCUGAUGGUGCAGGCCUUCCACGCCAACAUCAUCUUCCCCAACAAGCAAGAGC	-0.42
AGUCCUGUGCUACACAUCGUAUGUACCGAAUCAAAUUUUUUUAAACCCAAAUUUAAAAAAGUAUUAUGUUACGCCGUUCGGAUCUGCACU	-0.598
CCUGUGCUACACAUCGUAUGUACCGAAUCGGGGAAAAAAAGGGAAAAAAAGGAAAAAAAGGAAAGUAUUAUGUUACGCCGUUCGGAUCUG	0.0514
UUCCCCUGGAGGGCGCCUCCAUCCUUGGAGGCCUAGUGCCGUCGGAGAGAGAGCGGGAGCCGCGGACAGAGACGCGUGCGCAAUUCGGAG	-0.502
CUGUGCUACACAUCGUAUGUACCGAAUCGGGAAAAAAAGGAAAAAAAGGGGAAAAAAAGGGAAAGUAUUAUGUUACGCCGUUCGGAUCUG	0.134
CAAGUCCUGUGCUACACAUCGUAUGUACCGAAUCGGGAAAAAAAGGGUGGGUGGGAAAGUAUUAUGUUACGCCGUUCGGAUCUGCACUUC	0.903
AGUCCUGUGCUACACAUCGUAUGUACCGAAUCGGGGCCCCGGGCCCCGGGCCCCGGGAAAGUAUUAUGUUACGCCGUUCGGAUCUGCACU	-1.1
CACAGACAACACGCACCCACACAGACACAGAGGGAACGGGUUGGGAUGGGGACAGGGUGCACAGCAGGGCGGGGUAGGACCCCAGCCCCU	0.197

Series 2
Target: RNA binding protein fox-1 homolog 2, RRM domain, GST-SBP tag (RBFOX2, Homo sapiens, UniProt O43251-10, residues 100-194)
Technique: RNA Bind-n-Seq
Form: RNA
Sample: in vitro
Tested at: 365 nM
Setting: natural RNA segment, single round, ends assumed
Baseline: no-protein control
Direction: higher = stronger binding
All sequences stand within: GGGAGUUCUACAGUCCGACGAUC … UGGAAUUCUCGGGUGCCAA
Target sequence (chain): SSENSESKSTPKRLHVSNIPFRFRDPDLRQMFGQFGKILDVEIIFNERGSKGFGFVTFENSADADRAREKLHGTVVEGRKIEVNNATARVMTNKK
Oligonucleotide	RBNS enrichment (R)
GAUUAUAGAUUUAAAAGUAUAUGACAUGUAUUUUGUAUUUAAAACUAGAAUAGCCAGUAUUUAUGUUUUUUAUAAAACUGUGCAAUACAAAUUAUGCAAUCACCAUAACU	0.854
UCUUGGAAGUUACAAUUUAAGGUACCCCAAAAAAGUUGGAAAUAAAACAAAACAAACAUAAACAAUGAAGCACCCUGUGAAAUGCCAAAUGAGUCACUCCUUUUACCUUU	0.474
UUUGCCCAUUUACACUUUUGAGACUUUUUGGUGGAUGUAAAUAACCCCAUUCUUUGCUUGAACACAGUAUUUUCCCAAUAGCACUUUCAUUGCCAGUGUCUUUCUUUGGU	0.719
UACAGUUUUACAUUUAAACGCACAGUCUUACGUGGACAAAUGCAAGCACAAGCCUAAAGCAAGGUCAAGCAGAUGGCAAAACCGAAUUUGCCUGCAAAGAAAUCUAUUUA	0.438
UGUGAGGAUAAAUAUGCAUGCUUUUUGUAAUUAACUGGUGCUUUGAAAAUCUUUUUUAAGGGAGAAAAAUCUCAACCAAAGUUAUGCUCAUCCAGACAAGCUGACCUUUG	5.06
GCUUUUUUUAAAUUGCUUUAUCUGUAUAUCUGAACUCUUGAAACUUAUAGCUAAAACACUAGGAUUUAUCUGCAGUGUUCAGGGAGAUAAUUCUGCCUUUAAUUGUCUAA	0.499
CAUAUGGGGAAUGUGUGUUUAUGUACCAGAUGGGGAGUGUUGAGGGGAUAUGGUGGCUCUGUGAUCUGUUUGUCCAUUUGUGUCCAGUGUUGACCUGCGUUACUGGAACU	34.6
UAAGAAGUAAAAACUUAUUUGGAAGGCAGAGACAGACGGCAGCAGCUCACUUAGGCAGGAAUGGUCUUACCUUUUAAAAGCUUGUGGGAAACUGAAUUUGAAAUGACAAA	0.39
UUUAACUAGGUGCGGUGGCUACUAAAGUUCGAAGGCACGAUAUGCGUGUCCAUCCUUACCAAAGGAUUGUGACCGCAGACCGAGGCGCCACCGGCAACUAACCUAUGACC	0.308
GUUGUAUUUAGAAAUAUCUUAUGUAAUGUGCUUUGUAAAAGAAGAUGAAUUAAAAUGAAAUUUUGUGAAAAUAUUUUUGUUCAAAGUUGUCACAGUCCAAGAGGAAUGGU	1.26
CUGAGGGAUGGUCCUGACAGUAAACAGCGGGAAGACACCGGGAGCAUUGUAAUCGCUUGGUUAAUUGUCCGACAUUGGUCCAGGAACAACUUGUCUUUUCAGCCGGCUGA	0.501
GUGGGCUUCUUCAUCUUUACGUUCUAGACUCCAAUUUUGUCCAAUGUAUAUAGAAUCUCCAUAUUAAAGAAAUAUUCAUAAUCAGAAAGCUUGAAUAUUGUUUUUGCACC	0.594

Series 3
Target: ABI1, truncated, D143A, DHFR fusion (Arabidopsis thaliana, UniProt P49597)
Technique: DHFR PCA, dose-response
Sample: yeast
Setting: Hill fit, not affinity, not high confidence
With: (+)-ABA, dose series
Direction: lower = more sensitive
Starting sequence: PYL1, truncated, DHFR fusion (Arabidopsis thaliana, UniProt Q8VZS8); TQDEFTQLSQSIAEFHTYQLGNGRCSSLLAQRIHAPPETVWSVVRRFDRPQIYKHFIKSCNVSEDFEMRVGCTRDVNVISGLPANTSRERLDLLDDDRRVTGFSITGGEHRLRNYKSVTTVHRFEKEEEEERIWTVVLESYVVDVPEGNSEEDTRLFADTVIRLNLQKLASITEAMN
Change	ABA EC50
T160P	15 µM
V136P	0.0136 µM
N177P	90.6 µM
F47R	12.3 µM
N177D	2.79 µM
G108I	1640 µM
V143W	7.79 µM
V121D	426 µM
E89F	1810 µM
L169N	0.638 µM
S140N	734 µM
H110Y	0.116 µM
L138N	1790 µM
L112G	10 µM
H16V	708 µM
L169Y	241 µM
V161R	2.48 µM
Y115C	1600 µM
W41N	63.5 µM
T154R	4.11 µM

Series 4
Target: RING finger protein unkempt homolog, zinc fingers 1-6, SBP tag (UNK, Homo sapiens, UniProt Q9C0B0, residues 30-357)
UniProt Q9C0B0, sequence (30-357, looked up): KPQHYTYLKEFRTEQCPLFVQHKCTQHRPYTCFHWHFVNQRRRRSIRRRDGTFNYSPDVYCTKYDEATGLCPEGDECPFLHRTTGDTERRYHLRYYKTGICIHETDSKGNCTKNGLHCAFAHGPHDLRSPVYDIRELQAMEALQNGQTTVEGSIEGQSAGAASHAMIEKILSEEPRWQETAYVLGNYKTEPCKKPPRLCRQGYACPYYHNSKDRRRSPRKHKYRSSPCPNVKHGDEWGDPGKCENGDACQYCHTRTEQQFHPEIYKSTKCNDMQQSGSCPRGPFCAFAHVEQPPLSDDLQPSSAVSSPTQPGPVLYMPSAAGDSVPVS
Technique: RNA Bind-n-Seq
Form: RNA
Sample: in vitro
Tested at: 100 nM
Setting: RNA with constant flanks, vertebrate orthologous sites, ends assumed
Baseline: input RNA pool
Direction: higher = stronger binding
All sequences stand within: GGGAGUUCUACAGUCCGACGAUC … CAACAGAGGAUUGAGCAUCA
Oligonucleotide	bound/input enrichment
AAAUUCCCCCAUUGUCACUGAGAACCACCAAAUCUGACUUUUACAUUUGGUCUCAGAAUUUAGGUUCCUGCCCUGUUGGUUUUUUUUUUUUUUUUUAGAAAAAAAAACAAAACACCCCAG	0.323 ratio
UUGUUUUGUACAGGGCAUUCUCUGUACAAAUUUGUUGUGGUUAUAAAACAAUUAGCAAAACAGCUUACAUUUGUAUUUAUUUUCUAUUCCAUACCUCUACCCCAUGUUUUUUCUCCUCAA	0.693 ratio
ACCAUGUACCCUGCUGUAUAAUAGACAACCGAGACACUUGUCAACUAUUGAUACAGGUGUUAGUCCCAAACCACUUUUUAUAUGUUUUAAAUUUUGAAAUUCAAGUGUAUCUGCCAUAAC	1.31 ratio
GAUUUGGACCUGGGAGCAGAGCUAGGGAGCUGACUAAAGUAAAGCAGACUUGUAAACUUGUAGCCAUAUGUAGUUGCACAACAACAGUAUCAGCAUAGCAGCUGUGCUAAAGUAUUUAUA	0.514 ratio
CACAAUCUCUACUUAAGUAGGUAUUUACAUACCACAUUAAGCCUUCAUUUUACAUAUUUACAGCUUUUCUGUUUUACAGAUGAGACAAAAGAAUUUCAUGCUUAAAGUUAAAUGUGGUCU	0.379 ratio
CUCCCUCAGCGACAGUAUGCCAUCUGUAGCGGAUUCCCACUCUAGUCAUUUUUCAGAAUUUAGCUGUUCUGACUUAGAAAGCAUGAAAACUUCUUGUAGUCAUGGUUCCAGUGAUUAUCA	1.48 ratio
GUAUGUAGAGAAAAUUUUUCAUUGACCCCCCCCAAUUGUGAAAUUCCCCAGCAAUUUAUUUAGAAUCUUAAUUUUUCUAAUUCAAACUCAUUGUAUUAGUUAUUUUAGCCCAUAAUUAAA	1.77 ratio
AUCUAUACACUUUUAAAGAUAACUUCCUUAUAAGAUGUUUUGGCUAGUCAUAUUUAAUCGUAUUUAUAUAUCUAUUUUUUAUAAUAGCAGUGUAGAUUCCAAGGGGCCUCCUUUCGGGUU	0.647 ratio
CAUUUUCUUGUUUUAGGUAUCAUUGCCCAAUGCCCAAGAUCUUUUAUGUUCAGCUGACUGUAGGAAAUAAUGAAUUUUUUGGAGAAGGAAAGACUCGGCAAGCUGCUAGACACAAUGCUG	1.15 ratio

Series 5
Target: CCNA2, cyclin fold, Cln2 fusion (human)
Technique: yeast growth competition, sequencing
Sample: yeast
Setting: strong parent motif
Baseline: not given
Direction: higher = stronger binding
Starting sequence: SCAPER docking peptide (human); SNARRSLNFGGST
Change	normalised enrichment score
N2S	6.61
N2D	4.75
R4C	4.96
G10Q	5.73
N8G	3.17
S12R	5.12
S6A	6.99
N8P	3.37
R5Y	0.56
S6P	3.2
S6L	4.74
A3K	0.996
F9K	0.269
A3T	5.25
S12L	6.66
T13D	6.92
